Experimental data collected from several papers.
Each numbered part is a random draw from the data of one study; scales do not carry over between parts. Positions count from the first letter of the parent shown.

Series 1 — technique: DHFR PCA, dose-response; matrix: yeast; setting: Hill fit, mean, not affinity; with: (+)-ABA, dose series; reading: lower = more sensitive
Target: ABI1, truncated, D143A, DHFR fusion (Arabidopsis thaliana, UniProt P49597)
Starting sequence: PYL1, truncated, DHFR fusion (Arabidopsis thaliana, UniProt Q8VZS8); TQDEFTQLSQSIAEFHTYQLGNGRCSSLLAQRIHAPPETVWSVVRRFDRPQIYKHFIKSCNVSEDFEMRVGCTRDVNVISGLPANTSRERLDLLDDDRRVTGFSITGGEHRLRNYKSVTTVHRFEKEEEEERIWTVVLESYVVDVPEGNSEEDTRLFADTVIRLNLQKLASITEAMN
Variant	ABA EC50
D75Y	2.26 µM
V70G	64 µM
T173V	1.97 µM
E14D	3.86 µM
G81E	222 µM
Y53H	11.4 µM
R163D	129 µM
L93D	109 µM

Series 2 — technique: protein binding microarray; molecule type: double-stranded DNA, one strand shown; matrix: in vitro; concentration: not given; reference: not given; reading: higher = stronger binding
Target: Histone acetyltransferase KAT6A, winged helix 1, GST fusion (KAT6A, Homo sapiens, UniProt Q92794, residues 1-85)
Setting: 8-mer, flanks averaged, mean of 2 arrays, mostly near background
Construct (chain): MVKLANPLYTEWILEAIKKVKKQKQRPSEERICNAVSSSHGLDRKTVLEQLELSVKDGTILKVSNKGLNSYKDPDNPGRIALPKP
Sequence	E-score
GCCCCCCA	-0.153
CCGGGTTA	0.262
CCGCGGGC	0.44
GACCTAAC	-0.0863
GACCCAGA	-0.067

Series 3 — technique: RNA Bind-n-Seq; molecule type: RNA; matrix: in vitro; concentration: 365 nM; reference: no-protein control; reading: higher = stronger binding
Target: RNA binding protein fox-1 homolog 2, RRM domain, GST-SBP tag (RBFOX2, Homo sapiens, UniProt O43251-10, residues 100-194)
Setting: natural RNA segment, single round, ends assumed
Constant ends, left off below: GGGAGUUCUACAGUCCGACGAUC … UGGAAUUCUCGGGUGCCAA
Residues (chain): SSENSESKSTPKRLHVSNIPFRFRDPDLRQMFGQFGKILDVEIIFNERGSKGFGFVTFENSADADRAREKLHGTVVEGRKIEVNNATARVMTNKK
Sequence	RBNS enrichment (R)
ACAUUUCUAGAAAAAACUACUUUUGUACCAGUGUGAAUAAAGUUAGUGUGUUGUCUGUGCAGCUGCACCCAGACUCCUACGCAUUUCUGUCCGCUGUGCAUCUGGACUCC	1.06
UUUAGAGUUUUACCAGCUAUUUAUUGAGUACCCUGUAUAUAGUAGAUCAGUGAGGAGGUGAAUGUAUAAGUUAUGGCCUGGACCCUGCUGCAGAUGCUGUGAGAGUCUGG	1.91
UUCUGGGCCUGGCUGUGAAGCCCUGUUUUUGGUAUUCAGAAUGGAUCUUUAAGGCUCAGAUGGGCUCAAAUUGAAACCUUGUGUUUUAUAAAAUGGAUGUUUAGUAAAGG	0.665
AGAUUUGUUGGAUCUAUUUGGUUUAAAAAGUAUUCUAUCUUAAGGCCAACUAAUAUAAAAUACCAUUGUUAAAGAAUGGUACUUUUAUAAACAUUAGUGUAUUUAUUUCC	0.328
GGGAAGUAUCAGGUUCUGGGAGGCAACAGCAUUAAGUGAUAAGAAAAGGAGACAUUCUGGCAAAGCCAAUCUGCUUAAAGGCAAAGUCCAGAACCUGGAACCUAGAGGCC	0.656
AAGAGCAUGUGAAGAUGUGAUCAUUUGUGAUGUUACUUGUAAAAAAAAGUAUAUAUACAUAUCUUUUGAAGUGUUAAAAGGAAACUAGUACUUUAUAUUCUUUAUCAUAU	7.34

Mixed results
Substance	target	assay	test system	setting	scale	quantity	result
PhoQ, residues 284 288 289 292 302 303 GANMMA	PhoP, residues 12 14 15 18 19 SYFRT (Escherichia coli, UniProt P23836)	Sort-seq, item: YFP reporter	E. coli	PhoQ-PhoP variant library, with: 10 µM Mg2+	reference: high Mg2+ state, higher = stronger signaling	fold induction	0.821

Repeated from above (series 3):
Sequence	RBNS enrichment (R)
ACAUUUCUAGAAAAAACUACUUUUGUACCAGUGUGAAUAAAGUUAGUGUGUUGUCUGUGCAGCUGCACCCAGACUCCUACGCAUUUCUGUCCGCUGUGCAUCUGGACUCC	1.06
UUUAGAGUUUUACCAGCUAUUUAUUGAGUACCCUGUAUAUAGUAGAUCAGUGAGGAGGUGAAUGUAUAAGUUAUGGCCUGGACCCUGCUGCAGAUGCUGUGAGAGUCUGG	1.91
